{"data": "Results from different studies", "note": "Numbered parts are unrelated; each lists some results of a single study.", "chain of UniProt P42336 (whole entry, unmodified, looked up)": "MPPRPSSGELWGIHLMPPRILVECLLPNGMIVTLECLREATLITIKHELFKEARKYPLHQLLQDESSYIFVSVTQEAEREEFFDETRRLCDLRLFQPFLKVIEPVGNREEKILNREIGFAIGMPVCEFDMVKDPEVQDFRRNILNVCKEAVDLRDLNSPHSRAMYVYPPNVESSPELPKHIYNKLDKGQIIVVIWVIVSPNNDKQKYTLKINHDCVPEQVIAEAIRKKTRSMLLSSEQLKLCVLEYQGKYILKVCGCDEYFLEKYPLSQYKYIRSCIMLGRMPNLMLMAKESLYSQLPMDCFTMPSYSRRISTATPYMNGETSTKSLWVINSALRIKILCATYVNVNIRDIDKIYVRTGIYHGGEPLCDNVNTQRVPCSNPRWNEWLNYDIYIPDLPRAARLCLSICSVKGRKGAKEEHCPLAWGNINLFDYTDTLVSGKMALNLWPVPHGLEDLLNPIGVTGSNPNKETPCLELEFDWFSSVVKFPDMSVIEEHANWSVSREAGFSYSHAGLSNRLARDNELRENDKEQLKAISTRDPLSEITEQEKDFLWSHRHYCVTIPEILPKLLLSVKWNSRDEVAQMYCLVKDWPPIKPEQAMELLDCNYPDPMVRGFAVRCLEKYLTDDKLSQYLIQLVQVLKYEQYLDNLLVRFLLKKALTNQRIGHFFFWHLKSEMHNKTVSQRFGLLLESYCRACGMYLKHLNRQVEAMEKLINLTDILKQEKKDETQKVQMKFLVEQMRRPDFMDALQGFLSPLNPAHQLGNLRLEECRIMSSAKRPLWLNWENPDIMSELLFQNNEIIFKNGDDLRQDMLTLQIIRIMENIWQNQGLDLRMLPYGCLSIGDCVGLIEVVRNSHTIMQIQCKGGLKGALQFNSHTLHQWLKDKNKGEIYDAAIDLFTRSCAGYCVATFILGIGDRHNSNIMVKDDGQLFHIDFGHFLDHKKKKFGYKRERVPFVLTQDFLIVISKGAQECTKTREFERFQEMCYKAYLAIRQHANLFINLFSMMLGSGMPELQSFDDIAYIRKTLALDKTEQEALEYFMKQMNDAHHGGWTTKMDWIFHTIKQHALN", "chain of UniProt Q9P1W9 (whole entry, looked up)": "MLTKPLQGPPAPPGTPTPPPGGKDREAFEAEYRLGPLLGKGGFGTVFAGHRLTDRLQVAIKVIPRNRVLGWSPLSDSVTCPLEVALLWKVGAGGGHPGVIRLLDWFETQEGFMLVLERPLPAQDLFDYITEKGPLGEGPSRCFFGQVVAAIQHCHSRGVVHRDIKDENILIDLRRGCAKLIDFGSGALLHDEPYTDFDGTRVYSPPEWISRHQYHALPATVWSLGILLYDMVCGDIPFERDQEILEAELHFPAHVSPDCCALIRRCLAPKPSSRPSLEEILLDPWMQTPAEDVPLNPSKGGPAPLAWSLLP", "chain of UniProt Q9UF33 (whole entry, looked up)": "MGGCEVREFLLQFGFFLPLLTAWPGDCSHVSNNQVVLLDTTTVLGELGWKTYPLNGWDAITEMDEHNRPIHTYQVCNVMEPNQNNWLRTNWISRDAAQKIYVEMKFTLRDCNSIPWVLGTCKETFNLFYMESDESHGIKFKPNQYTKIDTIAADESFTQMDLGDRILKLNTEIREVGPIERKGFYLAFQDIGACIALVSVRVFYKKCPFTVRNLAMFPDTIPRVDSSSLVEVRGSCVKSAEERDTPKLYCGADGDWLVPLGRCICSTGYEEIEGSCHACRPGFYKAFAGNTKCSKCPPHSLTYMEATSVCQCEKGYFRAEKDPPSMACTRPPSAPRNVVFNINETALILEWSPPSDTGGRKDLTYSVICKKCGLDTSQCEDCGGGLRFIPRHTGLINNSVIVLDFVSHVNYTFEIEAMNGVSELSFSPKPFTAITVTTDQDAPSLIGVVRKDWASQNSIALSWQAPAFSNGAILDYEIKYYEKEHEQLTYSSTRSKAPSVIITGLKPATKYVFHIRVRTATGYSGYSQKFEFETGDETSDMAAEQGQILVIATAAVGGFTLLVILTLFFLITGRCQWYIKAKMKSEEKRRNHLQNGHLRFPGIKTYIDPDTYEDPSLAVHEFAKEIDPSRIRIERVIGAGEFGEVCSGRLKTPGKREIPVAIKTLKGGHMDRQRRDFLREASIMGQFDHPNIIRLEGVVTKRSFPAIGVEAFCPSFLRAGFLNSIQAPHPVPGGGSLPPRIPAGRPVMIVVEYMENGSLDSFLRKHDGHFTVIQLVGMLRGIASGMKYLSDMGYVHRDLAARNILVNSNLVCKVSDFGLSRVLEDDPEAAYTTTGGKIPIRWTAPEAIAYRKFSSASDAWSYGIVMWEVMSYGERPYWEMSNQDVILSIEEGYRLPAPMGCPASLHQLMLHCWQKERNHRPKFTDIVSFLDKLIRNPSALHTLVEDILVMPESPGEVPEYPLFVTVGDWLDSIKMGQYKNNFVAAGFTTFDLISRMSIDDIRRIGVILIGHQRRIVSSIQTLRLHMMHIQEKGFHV", "chain of UniProt Q96PY6 (whole entry, looked up)": "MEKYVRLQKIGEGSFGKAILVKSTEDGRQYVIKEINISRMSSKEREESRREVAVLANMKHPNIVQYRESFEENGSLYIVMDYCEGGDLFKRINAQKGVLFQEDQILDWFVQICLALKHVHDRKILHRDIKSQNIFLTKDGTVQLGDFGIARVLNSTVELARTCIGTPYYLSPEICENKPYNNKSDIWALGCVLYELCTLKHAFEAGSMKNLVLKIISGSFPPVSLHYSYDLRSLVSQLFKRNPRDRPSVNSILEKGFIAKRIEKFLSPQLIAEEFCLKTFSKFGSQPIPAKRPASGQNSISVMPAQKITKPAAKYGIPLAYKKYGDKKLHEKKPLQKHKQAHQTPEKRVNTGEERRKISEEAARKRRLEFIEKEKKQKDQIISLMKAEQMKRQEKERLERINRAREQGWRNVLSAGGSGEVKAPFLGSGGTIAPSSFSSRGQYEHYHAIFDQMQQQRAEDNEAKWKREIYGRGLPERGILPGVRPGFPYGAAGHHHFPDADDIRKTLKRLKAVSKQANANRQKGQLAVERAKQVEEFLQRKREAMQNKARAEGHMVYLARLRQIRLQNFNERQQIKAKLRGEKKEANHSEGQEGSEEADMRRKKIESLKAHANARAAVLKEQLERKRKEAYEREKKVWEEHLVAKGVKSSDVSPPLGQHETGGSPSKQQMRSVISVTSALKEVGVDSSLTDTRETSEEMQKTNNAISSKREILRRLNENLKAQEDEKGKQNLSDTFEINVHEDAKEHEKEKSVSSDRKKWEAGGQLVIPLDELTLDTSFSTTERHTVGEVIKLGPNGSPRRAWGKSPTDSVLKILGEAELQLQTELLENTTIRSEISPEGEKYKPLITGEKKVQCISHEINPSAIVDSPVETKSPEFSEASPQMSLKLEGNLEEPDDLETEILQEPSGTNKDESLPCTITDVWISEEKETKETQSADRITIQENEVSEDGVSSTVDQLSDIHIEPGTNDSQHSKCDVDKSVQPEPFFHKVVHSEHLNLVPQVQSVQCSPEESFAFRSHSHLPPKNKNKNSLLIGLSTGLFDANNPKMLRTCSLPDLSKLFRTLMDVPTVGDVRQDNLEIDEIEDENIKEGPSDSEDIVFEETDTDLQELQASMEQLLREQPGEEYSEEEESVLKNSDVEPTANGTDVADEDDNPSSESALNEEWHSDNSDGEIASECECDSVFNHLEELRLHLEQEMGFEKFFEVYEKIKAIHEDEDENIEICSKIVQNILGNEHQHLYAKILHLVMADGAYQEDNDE", "chain of UniProt Q01726 (whole entry, looked up)": "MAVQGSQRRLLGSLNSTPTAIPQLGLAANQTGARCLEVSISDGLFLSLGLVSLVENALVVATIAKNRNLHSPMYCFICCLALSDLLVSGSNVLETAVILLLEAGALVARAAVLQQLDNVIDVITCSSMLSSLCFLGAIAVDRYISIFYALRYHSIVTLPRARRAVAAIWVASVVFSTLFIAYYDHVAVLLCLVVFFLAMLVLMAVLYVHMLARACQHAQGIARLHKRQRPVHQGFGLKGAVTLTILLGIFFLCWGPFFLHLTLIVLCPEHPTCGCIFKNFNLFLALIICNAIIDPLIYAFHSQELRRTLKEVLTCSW", "chain of UniProt O15552 (whole entry, looked up)": "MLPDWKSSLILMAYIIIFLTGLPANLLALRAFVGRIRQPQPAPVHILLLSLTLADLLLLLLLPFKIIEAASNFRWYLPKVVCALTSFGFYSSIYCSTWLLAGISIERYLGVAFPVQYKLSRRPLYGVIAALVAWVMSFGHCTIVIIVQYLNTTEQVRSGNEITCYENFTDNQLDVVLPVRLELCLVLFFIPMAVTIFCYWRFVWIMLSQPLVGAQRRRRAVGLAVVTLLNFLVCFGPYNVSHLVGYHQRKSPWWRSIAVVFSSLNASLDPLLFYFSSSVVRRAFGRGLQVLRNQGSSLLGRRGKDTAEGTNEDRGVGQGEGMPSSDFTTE"}
{"data": "Study 1", "Compound": "CC(C)CN(C)c1nc(N)c(C(=O)N=C(N)N)nc1Cl", "observed": "β-arrestin recruitment", "action": "agonist", "method": "PRESTO-Tango", "tested at": "10 µM", "baseline": "untreated"}
{"target": "P2Y purinoceptor 13 (P2RY13, Homo sapiens, UniProt Q9BPV8)", "fold over basal": 0.91}
{"target": "MC1R (Homo sapiens, UniProt Q01726)", "fold over basal": 0.92}
{"target": "GPR84 (Homo sapiens, UniProt Q9NQS5)", "fold over basal": 1.3}
{"target": "ADGRF1 (Homo sapiens, UniProt Q5T601)", "fold over basal": 0.86}
{"target": "HCAR2 (Homo sapiens, UniProt Q8TDS4)", "fold over basal": "0.86 fold"}
{"target": "Probable G-protein coupled receptor 34 (Homo sapiens, UniProt Q9UPC5)", "fold over basal": 0.9}
{"target": "FFAR2 (Homo sapiens, UniProt O15552)", "fold over basal": "0.95 fold"}
{"target": "GPR68 (Homo sapiens, UniProt Q15743)", "fold over basal": 0.61}
{"target": "Motilin receptor (MLNR, Homo sapiens, UniProt O43193)", "fold over basal": 0.86}
{"target": "HCAR1 (Homo sapiens, UniProt Q9BXC0)", "fold over basal": "1.24 fold"}
{"target": "HRH4 (Homo sapiens, UniProt Q9H3N8)", "fold over basal": "0.77 fold"}
{"target": "ADGRG1 (Homo sapiens, UniProt Q9Y653)", "fold over basal": 0.84}
{"target": "SSTR3 (Homo sapiens, UniProt P32745)", "fold over basal": "1.39 fold"}
{"target": "MC2R (Homo sapiens, UniProt Q01718)", "fold over basal": 1.2}
{"target": "CXCR6 (Homo sapiens, UniProt O00574)", "fold over basal": 0.7}
{"target": "ADORA2B (Homo sapiens, UniProt P29275)", "fold over basal": 0.53}
{"data": "Study 2", "target": "Calcium/calmodulin-dependent protein kinase type II subunit alpha (CAMK2A, Homo sapiens, UniProt Q9UQM7)", "observed": "enzyme activity", "action": "inhibitor", "tested at": "10 µM", "chain of UniProt Q9UQM7 (whole entry, looked up)": "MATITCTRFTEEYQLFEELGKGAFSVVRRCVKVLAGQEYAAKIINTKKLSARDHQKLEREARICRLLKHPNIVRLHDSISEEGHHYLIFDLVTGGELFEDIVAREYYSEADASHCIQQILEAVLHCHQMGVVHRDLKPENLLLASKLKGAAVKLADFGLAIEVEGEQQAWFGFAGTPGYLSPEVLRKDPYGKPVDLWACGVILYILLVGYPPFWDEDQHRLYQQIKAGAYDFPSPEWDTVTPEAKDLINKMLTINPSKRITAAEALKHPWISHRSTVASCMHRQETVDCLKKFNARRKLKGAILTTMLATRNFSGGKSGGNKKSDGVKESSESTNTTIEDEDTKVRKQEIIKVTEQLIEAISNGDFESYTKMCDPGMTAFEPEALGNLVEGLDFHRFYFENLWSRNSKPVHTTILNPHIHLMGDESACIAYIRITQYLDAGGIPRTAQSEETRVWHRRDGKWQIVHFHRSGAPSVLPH"}
{"SMILES": "Cc1ccccc1C(=O)O", "inhibition": "-27%"}
{"SMILES": "Cc1ccc(C(=O)Nc2ccc(S(=O)(=O)O)c3cc(S(=O)(=O)O)cc(S(=O)(=O)O)c23)cc1NC(=O)c1cccc(NC(=O)Nc2cccc(C(=O)Nc3cc(C(=O)Nc4ccc(S(=O)(=O)O)c5cc(S(=O)(=O)O)cc(S(=O)(=O)O)c45)ccc3C)c2)c1", "inhibition": "-18%"}
{"SMILES": "C/C=C1\\C(CC(=O)OC[C@H]2O[C@@H](OCCc3ccc(O)cc3)[C@H](O)[C@@H](O)[C@@H]2O)C(C(=O)OC)=CO[C@H]1O[C@@H]1O[C@H](CO)[C@@H](O)[C@H](O)[C@H]1O (stereo partly shown)", "inhibition": "3%"}
{"SMILES": "CC1(C)S[C@@H]2[C@H](NC(=O)[C@H](NC(=O)N3CCN(S(C)(=O)=O)C3=O)c3ccccc3)C(=O)N2[C@H]1C(=O)O", "inhibition": "6%"}
{"SMILES": "COc1cc([C@@H]2c3cc4c(cc3[C@@H](O[C@@H]3O[C@@H]5CO[C@@H](c6cccs6)O[C@H]5[C@H](O)[C@H]3O)[C@H]3COC(=O)[C@H]23)OCO4)cc(OC)c1O", "inhibition": "-17%"}
{"SMILES": "Nc1nc(O)c2c(n1)NC[C@H](CNc1ccc(C(=O)N[C@@H](CCC(=O)O)C(=O)O)cc1)N2C=O", "inhibition": "0%"}
{"SMILES": "Cc1cccc(CC(=O)O)c1", "inhibition": "-39%"}
{"SMILES": "O=C(O)c1cn(-c2ccc(F)cc2)c2cc(N3CCNCC3)c(F)cc2c1=O", "inhibition": "-17%"}
{"SMILES": "CCCCCC(=O)O[C@H](CC(=O)[O-])C[N+](C)(C)C", "inhibition": "-29%"}
{"SMILES": "C[C@@H]1OC(O)[C@H](O)[C@H](O)[C@H]1O (stereo partly shown)", "inhibition": "10%"}
{"SMILES": "Cc1noc(NS(=O)(=O)c2ccc(N)cc2)c1C", "inhibition": "6%"}
{"SMILES": "CC(/C=C1\\SC(=S)N(CC(=O)O)C1=O)=C\\c1ccccc1", "inhibition": "2%"}
{"SMILES": "COC(=O)[C@@H](Cc1ccc(O)c(O)c1)OC(=O)/C=C/c1ccc(O)c(O)c1", "inhibition": "-17%"}
{"SMILES": "COc1ccc(-c2ccc3cc(C(=O)O)ccc3c2)cc1[C@]12C[C@H]3C[C@H](C[C@H](C3)C1)C2", "inhibition": "-9%"}
{"SMILES": "CCC/C=C1\\OC(=O)C2=C1CC[C@@H](O)[C@H]2O", "inhibition": "-4%"}
{"SMILES": "COc1ccc(CNc2nc(N3CCC[C@H]3CO)ncc2C(=O)NCc2ncccn2)cc1Cl", "inhibition": "1%"}
{"SMILES": "COc1ccc(-c2coc3cc(O[C@@H]4O[C@H](CO)[C@@H](O)[C@H](O)[C@H]4O)c(OC)c(O)c3c2=O)cc1O", "inhibition": "-12%"}
{"data": "Study 3", "target": "Diamine acetyltransferase 1 (Homo sapiens, UniProt P21673)", "action": "inhibitor", "tested at": "10 µM", "baseline": "control", "Construct (P21673 1-171)": "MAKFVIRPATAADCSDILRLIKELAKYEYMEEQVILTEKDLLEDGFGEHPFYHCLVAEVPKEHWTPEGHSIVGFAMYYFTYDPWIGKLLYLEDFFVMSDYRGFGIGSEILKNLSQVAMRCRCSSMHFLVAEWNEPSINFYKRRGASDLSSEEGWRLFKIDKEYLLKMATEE"}
{"SMILES": "COc1cc(C=CC(=O)O)cc(OC)c1O", "remaining activity [%]": 103}
{"SMILES": "O=C(O)c1cccnc1", "remaining activity [%]": 97.3}
{"SMILES": "O=C1c2c(O)cc(O)cc2O[C@H](c2ccc(O)cc2)[C@@H]1[C@@H]1C(=O)c2c(O)cc(O)cc2O[C@H]1c1ccc(O)cc1", "remaining activity [%]": 102}
{"SMILES": "CC(=O)OCC1=C[C@H](O)[C@@H]2C(C(=O)O)=CO[C@@H](O[C@@H]3O[C@H](CO)[C@@H](O)[C@H](O)[C@H]3O)[C@H]12", "remaining activity [%]": 115}
{"SMILES": "N[C@@H](CC(=O)O)C(=O)O", "remaining activity [%]": 83.9}
{"SMILES": "CC(C)=CCc1cc([C@@H]2CC(=O)c3ccc(O)c(CC=C(C)C)c3O2)ccc1O", "remaining activity [%]": 123}
{"SMILES": "O=C(OCc1ccccc1)c1ccccc1", "remaining activity [%]": 88.9}
{"SMILES": "CC(=O)OC[C@H]1O[C@@H](Oc2ccc(CO)cc2)[C@H](OC(C)=O)[C@@H](OC(C)=O)[C@@H]1OC(C)=O", "remaining activity [%]": 68.7}
{"SMILES": "CC1(C)[C@@H]2CC[C@@]1(C)C(=O)C2", "remaining activity [%]": 103}
{"SMILES": "C[N+](C)(C)CCO", "remaining activity [%]": 104}
{"SMILES": "COc1c(/C=C/C(=O)c2ccc(O)cc2)ccc(O)c1O", "remaining activity [%]": 113}
{"SMILES": "O=C1O[C@H]([C@@H](O)CO)C(O)=C1O", "remaining activity [%]": 100}
{"SMILES": "C=C(C)[C@@H]1CC=C(/C=N/O)CC1", "remaining activity [%]": 101}
{"SMILES": "OCC(O)c1ccccc1 (stereo not shown)", "remaining activity [%]": 108}
{"data": "Study 4", "SMILES": "CC1=C(C#N)C(c2ccc3c(c2)c(NC(=O)c2ccccc2C)nn3C)C(C#N)=C(C)N1", "observed": "cell-free assay", "method": "competition with immobilised ligand", "tested at": "1 µM"}
{"target": "PIM2 (Homo sapiens, UniProt Q9P1W9)", "remaining binding [%]": 91}
{"target": "EPHA6 (Homo sapiens, UniProt Q9UF33)", "remaining binding [%]": 89}
{"target": "BTK (Homo sapiens, UniProt Q06187)", "remaining binding [%]": 85}
{"target": "MAPK13 (Homo sapiens, UniProt O15264)", "remaining binding [%]": 79}
{"target": "Tyrosine-protein kinase JAK2, JH1 (JAK2, Homo sapiens, UniProt O60674)", "remaining binding [%]": 77}
{"target": "WNK2 (Homo sapiens, UniProt Q9Y3S1)", "remaining binding [%]": 75}
{"target": "Ribosomal protein S6 kinase alpha-1, C-terminal kinase domain (RPS6KA1, Homo sapiens, UniProt Q15418)", "remaining binding [%]": 100}
{"target": "LCK (Homo sapiens, UniProt P06239)", "remaining binding [%]": 81}
{"target": "Non-receptor tyrosine-protein kinase TYK2, JH2 (TYK2, Homo sapiens, UniProt P29597)", "remaining binding [%]": 82}
{"target": "PIK3CA (Homo sapiens, UniProt P42336)", "remaining binding [%]": 100}
{"target": "NEK1 (Homo sapiens, UniProt Q96PY6)", "remaining binding [%]": 100}
{"target": "FYN (Homo sapiens, UniProt P06241)", "remaining binding [%]": 100}
{"target": "MAP3K9 (Homo sapiens, UniProt P80192)", "remaining binding [%]": 96}
{"target": "TSSK3 (Homo sapiens, UniProt Q96PN8)", "remaining binding [%]": 80}
{"target": "TAOK2 (Homo sapiens, UniProt Q9UL54)", "remaining binding [%]": 70}
{"target": "MST1R (Homo sapiens, UniProt Q04912)", "remaining binding [%]": 95}
{"target": "PIK3CA (Homo sapiens, UniProt P42336, C420R)", "remaining binding [%]": 74}
{"target": "AKT3 (Homo sapiens, UniProt Q9Y243)", "remaining binding [%]": 93}
{"target": "NTRK1 (Homo sapiens, UniProt P04629)", "remaining binding [%]": 77}
{"target": "MAST1 (Homo sapiens, UniProt Q9Y2H9)", "remaining binding [%]": 92}
{"note": "Some of these lines once more (study 4):"}
{"target": "PIK3CA (Homo sapiens, UniProt P42336, C420R)", "remaining binding [%]": 74}
{"target": "Non-receptor tyrosine-protein kinase TYK2, JH2 (TYK2, Homo sapiens, UniProt P29597)", "remaining binding [%]": 82}
{"target": "AKT3 (Homo sapiens, UniProt Q9Y243)", "remaining binding [%]": 93}
{"target": "MAP3K9 (Homo sapiens, UniProt P80192)", "remaining binding [%]": 96}
{"target": "MAPK13 (Homo sapiens, UniProt O15264)", "remaining binding [%]": 79}
{"target": "TSSK3 (Homo sapiens, UniProt Q96PN8)", "remaining binding [%]": 80}
{"target": "BTK (Homo sapiens, UniProt Q06187)", "remaining binding [%]": 85}
